# Results pooled from the literature.
# A part holds a random share of what one study measured.

# Study 1 — method: protein-binding microarray; form: double-stranded DNA, one strand shown; matrix: in vitro; concentration: 2540 nM top; notes: 60-bp whole probe; together with: salmon DNA 0.4 mg/ml; baseline: random background probes; direction: higher = stronger binding; shared flanks, not repeated: GCCTAGCAC … GTCTTGATTCGCTTGACGCTGCTG
# Target: Interferon regulatory factor 3, full length, phosphomimetic (IRF3, Homo sapiens, UniProt Q14653, residues 1-427, S386D/S396D/S398D/S402D/T404D/S405D)
# Residues (chain): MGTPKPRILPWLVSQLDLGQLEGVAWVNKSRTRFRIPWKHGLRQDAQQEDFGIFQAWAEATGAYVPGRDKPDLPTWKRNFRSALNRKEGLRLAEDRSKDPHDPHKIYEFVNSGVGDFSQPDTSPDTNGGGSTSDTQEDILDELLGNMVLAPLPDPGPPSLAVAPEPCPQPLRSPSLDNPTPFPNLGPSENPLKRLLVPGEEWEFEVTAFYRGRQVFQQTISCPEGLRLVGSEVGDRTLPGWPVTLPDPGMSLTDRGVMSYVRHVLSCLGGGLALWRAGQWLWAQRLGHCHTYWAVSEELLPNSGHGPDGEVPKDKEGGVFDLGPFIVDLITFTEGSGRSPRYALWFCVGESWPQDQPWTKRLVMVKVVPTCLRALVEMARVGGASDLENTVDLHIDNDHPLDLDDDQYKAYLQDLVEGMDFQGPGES
Sequence,fitted relative affinity
GACGGACTGGGTATCCGGACGTGCTAG,0.162 z-score
AACGGTATCCTTTTCCTGACGTGCTAG,7.54 z-score
TTAGATTTGAGTTCCGATTAGTGCTAG,1.3 z-score
AGACAGTTGAGTTCTGTTGCAGTGCTA,-0.54 z-score
TTAGGTCTCCTACTGCTTAAGTGCTAG,0.874 z-score
GACGGTTTCGGGTTCGGGACGTGCTAG,5.42 z-score
GTAGATCTCAGTATCGATTAGTGCTAG,1.02 z-score

# Study 2 — method: RNA Bind-n-Seq; form: RNA; matrix: in vitro; concentration: 200 nM; notes: whole 134-nt RNA, ends assumed; together with: 150 mM KCl; baseline: input library; direction: higher = stronger binding
# Target: Ras GTPase-activating protein-binding protein 1, full length (G3BP1, Homo sapiens, UniProt Q13283)
# Chain of UniProt Q13283 (whole entry, looked up): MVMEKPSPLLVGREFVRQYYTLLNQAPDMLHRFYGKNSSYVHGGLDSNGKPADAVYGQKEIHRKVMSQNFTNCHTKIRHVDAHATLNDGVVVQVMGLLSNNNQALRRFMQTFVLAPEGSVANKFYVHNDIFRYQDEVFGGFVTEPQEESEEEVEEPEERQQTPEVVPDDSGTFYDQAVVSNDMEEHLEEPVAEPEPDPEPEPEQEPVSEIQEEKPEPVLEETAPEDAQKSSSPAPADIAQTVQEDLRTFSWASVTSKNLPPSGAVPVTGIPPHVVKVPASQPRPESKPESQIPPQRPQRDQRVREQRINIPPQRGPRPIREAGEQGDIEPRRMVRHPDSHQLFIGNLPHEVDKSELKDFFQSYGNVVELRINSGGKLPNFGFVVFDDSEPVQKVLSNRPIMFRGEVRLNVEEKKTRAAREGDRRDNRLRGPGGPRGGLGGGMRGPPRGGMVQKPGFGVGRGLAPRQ
# Shared flanks, not repeated: GGGAGUUCUACAGUCCGACGAUC … UGGAAUUCUCGGGUGUCAAGG
Sequence,log2 enrichment
CUGUGCUACACAUCGUAUGUACCGAAUCGGCCCCCCCGGGGCCCCCCCGGGGCCCCCCCGGAAAGUAUUAUGUUACGCCGUUCGGAUCUG,-0.504
CAAGUCCUGUGCUACACAUCGUAUGUACCGAAUCGGGGUUGGGUUGGGGUUGGGGAAAGUAUUAUGUUACGCCGUUCGGAUCUGCACUUC,0.905
UCCUCAAGUCCUGUGCUACACAUCGUAUGUACCGAAUCGGCGGCGGGCGGGAAAGUAUUAUGUUACGCCGUUCGGAUCUGCACUUCCAGC,-0.203
UGGCCCUGGUGGCAUGCGGGGAGGAAGAGGUGGCCUCAUGGAUCGUGGUGGUCCCGGUGGAAUGUUCAGAGGUGGCAGUGGUGGAGACAG,0.246
CUCAAGUCCUGUGCUACACAUCGUAUGUACCGAAUCGGGGCCGGCCGGCCGGGAAAGUAUUAUGUUACGCCGUUCGGAUCUGCACUUCCA,-0.0116
AAGUCCUGUGCUACACAUCGUAUGUACCGAAUCGGUUUUGGGGUUUUGGGUUUUGGGAAAGUAUUAUGUUACGCCGUUCGGAUCUGCACU,-0.629
UCAAGUCCUGUGCUACACAUCGUAUGUACCGAAUCGGGGAAGGGGAAGGGGAAGGAAAGUAUUAUGUUACGCCGUUCGGAUCUGCACUUC,0.135

# Study 3 — method: protein binding microarray; form: double-stranded DNA, one strand shown; matrix: in vitro; concentration: not given; baseline: not given; direction: higher = stronger binding
# Target: Histone acetyltransferase KAT6A, both winged helices, GST fusion (KAT6A, Homo sapiens, UniProt Q92794, residues 1-181)
# Notes: 8-mer, flanks averaged, mean of 2 arrays, mostly near background
# Target sequence (chain): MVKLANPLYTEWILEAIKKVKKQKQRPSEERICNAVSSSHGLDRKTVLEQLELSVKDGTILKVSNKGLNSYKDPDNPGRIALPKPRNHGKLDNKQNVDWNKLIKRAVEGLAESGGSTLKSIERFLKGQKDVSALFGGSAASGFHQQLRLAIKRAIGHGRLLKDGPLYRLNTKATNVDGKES
Sequence,E-score
CTCTCGGA,-0.0802
CCACGAGC,-0.0566
CATATGGG,-0.0723
AACGTCTG,-8e-05
ACAAAACC,-0.0541
AGGAATAA,-0.169
AGAAGATA,0.071

# Single results of other studies
Substance,target,assay,system,setting,how to read,endpoint,result
"PhoQ, residues 284 288 289 292 302 303 TYGVAM","PhoP, residues 12 14 15 18 19 SQCLL (Escherichia coli, UniProt P23836)","Sort-seq, refers to: YFP reporter",E. coli,"PhoQ-PhoP variant library, together with: 10 µM Mg2+","baseline: high Mg2+ state, higher = stronger signaling",fold induction,16.7

# Excerpt of the above (study 1):
Sequence,fitted relative affinity
AGACAGTTGAGTTCTGTTGCAGTGCTA,-0.54 z-score
TTAGGTCTCCTACTGCTTAAGTGCTAG,0.874 z-score
GACGGTTTCGGGTTCGGGACGTGCTAG,5.42 z-score
